Experimental data pooled from the literature.
Every numbered part comes from another study and shows a few of its results, in no order.

Set 1
Target: RING finger protein unkempt homolog, zinc fingers 1-6, GST-SBP tag (UNK, Homo sapiens, UniProt Q9C0B0, residues 30-357)
Method: RNA Bind-n-Seq
Form: RNA
Matrix: in vitro
Tested at: not given
Setting: RNA with constant flanks, human-mouse chimeric sites, ends assumed
Reference: input RNA pool
Reading: higher = stronger binding
All sequences stand within: GGGAGUUCUACAGUCCGACGAUC … CAACAGAGGAUUGAGCAUCA
Construct (chain): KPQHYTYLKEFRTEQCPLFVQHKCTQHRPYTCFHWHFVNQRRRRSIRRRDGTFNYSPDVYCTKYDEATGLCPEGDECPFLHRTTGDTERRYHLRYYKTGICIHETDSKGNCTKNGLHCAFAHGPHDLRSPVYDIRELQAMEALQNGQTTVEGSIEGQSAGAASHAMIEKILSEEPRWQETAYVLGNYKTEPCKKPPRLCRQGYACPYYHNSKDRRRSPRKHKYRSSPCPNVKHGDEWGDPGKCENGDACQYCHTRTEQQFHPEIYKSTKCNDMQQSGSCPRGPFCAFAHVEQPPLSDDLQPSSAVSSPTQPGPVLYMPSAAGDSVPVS
| Strand | bound/input enrichment [ratio] |
| --- | --- |
| AGUGUGCAGGAAUUCAUGACCUUUACAAGUCAACUGAUUGUGGAACGCUCGGGGAAAGGCACUAGAGCUUCUGUCAAAGAACAAGAGUAUCUUUGCCAUGUCUACGUCCGGAGCGACAGU | 0.0976 |
| GAGUCGAGCAAACUUGAAACUACAGAAUAUCUUGCAGCCUCAGUGUUCACUUGCUUGGCGAUAGCAUUGGGGUUUUAUAGGUUCUGGAAGGAGAACUGACGAUGAUGCUGCCGCUGCUGC | 0.155 |
| GAAUCCUACUCAGGCGGAUUUUGCAACACCAAGCUCAAGUAGCAAUUAUCUUAGUCACAGUAGGGUAGUUUUGGGGCAAUAUUGCCAGGGUUUUAUUCACAUGCAGGUUUGGAAAAUGUA | 2.5 |
| GAUAAGAAAAGCUUGUUGGAGACCCGCUUGCACAUCACUGGUAGAGACCUGAGGUGUCAAAUAGCUGAAACCUUUGGAUUUCAAGAAAAUUACAUCAAGAUCGUAAUAAAUAAGAAACAG | 0.271 |
| UGUAGUUGAUCCCCUGCUCAUUUUUCUCUUUUCUUUCUUUCCUUUAGGAAAAGCCUAAAGAUUAGGUUGUAAGAAAAGAAAAUAGAAUGUUUCGAAGACCUGUGUUACAGGUAUUUCGUC | 0.105 |
| CCCUCCCCGGGCCACCCACCCCUCCCGGCUCCCCGCCGAGAUCCAGGUUUCUUCUUAUUUCAUAGCCAAUAAGAAAAAUGUUCUACGCACAUUUUGUCCUCAGUAAAAGAGGGCCUCUGG | 0.881 |
| AUCCCAAUUAUGGACACCGGUGAAAACCCAGAGGUUCCCUUCCCCCGGGACAUGAUUGACUUAGAGGCCAAUUUUGAGAAGAUUGAAAAUGAACUGAAGGAAAUCAACACUAACCAGGAA | 0.286 |
| UUACCCGAGAACGAGGAUGAGCUGGAGAGCACCAACAGGCGCUACACCAAGAGGGACUGCAGCACUUUCCUCAGAACUAGCGAGACGGGCAUCGUGGACCAGGUCAUGGUAACUCUCAAC | 0.11 |

Set 2
Target: TAR DNA-binding protein 43, full length, His tag (TARDBP, Homo sapiens, UniProt Q13148, residues 1-414)
Method: RNA Bind-n-Seq
Form: RNA
Matrix: in vitro
Tested at: 20 nM
Setting: 6-mer, flanks averaged, single round
Added: 150 mM LiCl
Reference: input library
Reading: higher = stronger binding
| Strand | 6-mer enrichment (R) |
| --- | --- |
| CGGCUG | 1.03 |
| UGGCAC | 1 |
| CGGCUC | 0.886 |
| AUCAUA | 0.846 |
| AAAUAG | 0.921 |
| GGUACG | 1.03 |
| CACUGC | 0.881 |
| UUGGAA | 0.991 |

Further values, each from its own experiment
| Substance | target or system | test | test system | setting | how to read | quantity | value |
| --- | --- | --- | --- | --- | --- | --- | --- |
| RGPD3 (Homo sapiens, UniProt A6NKT7) | RGPD4 (Homo sapiens, UniProt Q7Z3J3) | cross-linking MS |  | hits only |  | interaction screen | cross-linked |
| KCVKRKLFAEDSS | human cyclin A2 | peptide binding, competitive growth sequencing | peptide, Saccharomyces cerevisiae, cyclin A2-Cln2 fusion strain | concentration not given, single-residue mutant peptides | reference: unfused Cln2 strain, direction not given | median binding score | 6.77 |

A few entries again (set 1):
| Strand | bound/input enrichment [ratio] |
| --- | --- |
| UGUAGUUGAUCCCCUGCUCAUUUUUCUCUUUUCUUUCUUUCCUUUAGGAAAAGCCUAAAGAUUAGGUUGUAAGAAAAGAAAAUAGAAUGUUUCGAAGACCUGUGUUACAGGUAUUUCGUC | 0.105 |
| CCCUCCCCGGGCCACCCACCCCUCCCGGCUCCCCGCCGAGAUCCAGGUUUCUUCUUAUUUCAUAGCCAAUAAGAAAAAUGUUCUACGCACAUUUUGUCCUCAGUAAAAGAGGGCCUCUGG | 0.881 |
